# Measurements of several laboratories.
# Every numbered part comes from another study and shows a few of its results, in no order.

# Block 1
# Target: Ras GTPase-activating protein-binding protein 1, C-terminal RGG region (G3BP1, Homo sapiens, UniProt Q13283)
# Chain of UniProt Q13283 (whole entry, looked up): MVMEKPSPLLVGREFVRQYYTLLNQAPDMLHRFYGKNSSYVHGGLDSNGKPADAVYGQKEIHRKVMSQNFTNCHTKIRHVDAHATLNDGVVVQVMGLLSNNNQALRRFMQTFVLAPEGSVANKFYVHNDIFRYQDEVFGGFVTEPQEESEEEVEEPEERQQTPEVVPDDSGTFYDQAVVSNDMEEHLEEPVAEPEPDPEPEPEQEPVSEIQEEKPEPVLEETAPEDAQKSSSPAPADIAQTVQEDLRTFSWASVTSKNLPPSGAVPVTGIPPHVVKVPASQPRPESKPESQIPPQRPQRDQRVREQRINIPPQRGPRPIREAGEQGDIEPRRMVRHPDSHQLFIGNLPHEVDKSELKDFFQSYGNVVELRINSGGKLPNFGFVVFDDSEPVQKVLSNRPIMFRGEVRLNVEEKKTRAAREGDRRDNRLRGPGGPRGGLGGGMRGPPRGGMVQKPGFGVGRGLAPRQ
# Technique: RNA Bind-n-Seq
# Molecule type: RNA
# Sample: in vitro
# Concentration: 1 µM
# Setting: whole 134-nt RNA, ends assumed
# Added: 150 mM KCl
# Baseline: input library
# Direction: higher = stronger binding
Strand,log2 enrichment
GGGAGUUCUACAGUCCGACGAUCGUCCUGUGCUACACAUCGUAUGUACCGAAUCGGGGAAAGGGGUGGGGAAAAAAAGGGGAAAGUAUUAUGUUACGCCGUUCGGAUCUGCACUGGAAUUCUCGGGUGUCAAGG,1.45
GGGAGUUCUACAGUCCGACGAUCCAAGUCCUGUGCUACACAUCGUAUGUACCGAAUCGGUUUUUUUGGUUUGGAAAGGAAAGUAUUAUGUUACGCCGUUCGGAUCUGCACUUCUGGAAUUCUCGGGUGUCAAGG,-1.85
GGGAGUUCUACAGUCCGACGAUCUUAAGAAUUUGCUUAAAGAAGUGCGGAUCUAUGCACAGAAAUUUAUUGAUCGAGGAAAGGAUUUUAACUUGGAGUUGGCAAUUAAAACACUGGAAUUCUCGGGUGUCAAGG,0.543
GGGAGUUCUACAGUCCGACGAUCAAGUCCUGUGCUACACAUCGUAUGUACCGAAUCGGUUUGGAAAAAAAGGUUUUUGGAAAGUAUUAUGUUACGCCGUUCGGAUCUGCACUUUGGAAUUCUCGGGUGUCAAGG,-2.25
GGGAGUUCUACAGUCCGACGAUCCCUGUGCUACACAUCGUAUGUACCGAAUCGGGGAAAAAGGGGAAAGGGGAAAAAAAGGGGAAAGUAUUAUGUUACGCCGUUCGGAUCUGCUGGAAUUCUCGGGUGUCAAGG,-0.102
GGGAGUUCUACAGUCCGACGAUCGCAGGAAGUAAAAACAAAUGGAAAUGCUUCGGAUAGUGGCAGGGGUGGGGGUUGCUAAGGAAAGGGUGGGAUGGGAGUGGGUAAAGUGUUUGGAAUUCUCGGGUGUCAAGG,0.779
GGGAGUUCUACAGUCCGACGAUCGCAGGAAGUGAAAACAAAUGGAAAUGCUUCGGAUAGUGGCAGGGGUGGGGGUUGCUAAGGAAAGGGUGGGAUGGGAGUGGGUAAAGAGUUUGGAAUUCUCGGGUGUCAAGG,2.7
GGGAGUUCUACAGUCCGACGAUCAGUCCUGUGCUACACAUCGUAUGUACCGAAUCGGGGUUUUGGGGUUUUGGGGUUUUGGAAAGUAUUAUGUUACGCCGUUCGGAUCUGCACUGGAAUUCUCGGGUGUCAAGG,-0.601
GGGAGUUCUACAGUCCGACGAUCUGGGAGGUGGAUUUUGUUUAUUUUUUUAGCUCAUUUCCAGGGGUGGGAAGUUUUUUUUAAUAUGUGUCAUGAAUAAAGUUGUUUUUGAAAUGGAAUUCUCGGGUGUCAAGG,3.82
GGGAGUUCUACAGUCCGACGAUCAGUCCUGUGCUACACAUCGUAUGUACCGAAUCGGGAGGGUUUUUUUGGGUUUUUGGGAAAGUAUUAUGUUACGCCGUUCGGAUCUGCACUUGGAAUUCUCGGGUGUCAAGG,-0.526

# Block 2
# Substance: PhoQ, residues 284 288 289 292 302 303 DDMDFR
# Technique: Sort-seq
# Measured: YFP reporter
# Sample: E. coli
# Setting: PhoQ-PhoP variant library
# Added: 10 µM Mg2+
# Baseline: high Mg2+ state
# Direction: higher = stronger signaling
target,fold induction
"PhoP, residues 12 14 15 18 19 LHHYF (Escherichia coli, UniProt P23836)",0.845
"PhoP, residues 12 14 15 18 19 VGHWL (Escherichia coli, UniProt P23836)",0.633
"PhoP, residues 12 14 15 18 19 NFFVT (Escherichia coli, UniProt P23836)",0.606
"PhoP, residues 12 14 15 18 19 TPWTL (Escherichia coli, UniProt P23836)",0.992

# Block 3
# Target: RING finger protein unkempt homolog, zinc fingers 1-6, GST-SBP tag (UNK, Homo sapiens, UniProt Q9C0B0, residues 30-357)
# Technique: RNA Bind-n-Seq
# Molecule type: RNA
# Sample: in vitro
# Concentration: not given
# Setting: RNA with constant flanks, ends assumed
# Baseline: input RNA pool
# Direction: higher = stronger binding
# Target sequence (chain): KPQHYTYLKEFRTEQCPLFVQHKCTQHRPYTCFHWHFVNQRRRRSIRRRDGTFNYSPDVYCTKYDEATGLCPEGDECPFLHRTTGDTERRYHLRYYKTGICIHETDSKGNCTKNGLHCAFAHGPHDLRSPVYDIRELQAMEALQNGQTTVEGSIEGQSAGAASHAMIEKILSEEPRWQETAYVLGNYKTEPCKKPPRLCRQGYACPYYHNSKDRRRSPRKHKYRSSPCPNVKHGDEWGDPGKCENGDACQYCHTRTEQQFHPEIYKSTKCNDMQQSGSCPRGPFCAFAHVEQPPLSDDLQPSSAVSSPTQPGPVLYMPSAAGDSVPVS
Strand,bound/input enrichment [ratio]
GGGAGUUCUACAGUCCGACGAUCAUCUCCAAGUUUAAAAAGUUUGAGGUACAGAGGGAAGGCCAGAUUUUUUUAAUGAAAUUAUACCGAUCCGAUCUCAGUAUUUAAACUGUUCCUCAAUUUUGUGAGGCUGUGUUGGAAAUACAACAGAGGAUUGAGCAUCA,0.476
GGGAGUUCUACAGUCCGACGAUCGAAGUAGAAGAUCCUGUGGAUUCUGAUGGUGAAGUCCUGGGCUUUGAAAAUCUCGUCUUCCGCAUUUUUGAAUUUGUCCAUGCUCUACUAGAAAAUAGCAAAUUCAAAAGCACUGUUAAGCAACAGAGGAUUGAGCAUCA,0.628
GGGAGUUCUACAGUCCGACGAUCAUUCUCAAUGCCACCCAGGCAGAAAGCAAAGUGUUCUACUUAAAAAUGAAAGGAGACUACUUCCGGUAUCUUUCUGAAGUUGCAUCCGGAGAAAAUAAACAAACCACGGUGUCCAACUCCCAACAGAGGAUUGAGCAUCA,0.132
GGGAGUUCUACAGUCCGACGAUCACAGAGCCUCUUGUCCCACCUUUGUCCCCUGGCUGCUGCCCUCCCAUUCUCCCCCUCCAGCCGCCGCUGGGUGAGACCUGUCCGCCCACCUUCCCUCCACUACAGAACCUGCAGCCGCAACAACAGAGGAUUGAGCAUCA,0.45
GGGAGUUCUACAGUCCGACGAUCGAGAUUGACUGCACCAUGCUCACCCCUGAGCCAGUUUUAAAGACCUCUGGCCACGCCGACAAAUUUGCUGACUUCAUGGUGAAGGACGUGAAGAACGGAGAGUGCUUCCGAGCAGACCACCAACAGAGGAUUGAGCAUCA,0.109
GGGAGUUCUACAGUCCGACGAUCUGAGUGAGCAGAUGAUUGAAUAUUGAUGUCAGCAUCCUUGAACACACUCAGAUGAGCAACACCGAGCUUCUGCUUCUAUUUAAAAUGAUGCUGGGUUUGAUUGUGGUCCGAAGCUUUGAACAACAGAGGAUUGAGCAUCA,0.0573
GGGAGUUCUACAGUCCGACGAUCUUUCUCCGUCGCCACAAGCGGCCCGGUGGCAUGUGCUAAGGCGGCUUCCGCUGUUUCAGUCCCGAUUUUUUUCUUAACAGUCCCAUUCCAAUUCUUUUGCAAGCAAAGAAACUGAGGCUGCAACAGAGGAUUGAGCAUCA,0.16
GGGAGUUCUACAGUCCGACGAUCUCUUCUGUUAUCCCUGGGGGUGCUCAGGUUCACUUGAUUGUCUGUAUUUCUGUGUGGUUGCCGCAAGGACUCAGCCUCAUGUAGCACGAAUAGGGGUGUGGUUCAUGGCGUGUUGACCCACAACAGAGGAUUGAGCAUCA,0.234
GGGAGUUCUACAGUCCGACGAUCCAUUCUCUUGCACUGUACAGAACAGAUGACUACUUAGAUCAGCCGUGUUGUGAAACCAUUAACCGAAUUAAACUUUACAGCGAGUCUUUGGCAAGAUACGGUAAAAGCCCGUACCUGUAUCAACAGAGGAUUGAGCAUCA,0.225
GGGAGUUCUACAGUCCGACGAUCCAGGUACAAGAGCAGAAGGCACAUCUUAGAGCUGCACAAGACCGUGUCCUUUCCCCCGAAACCCGUGUCAAUGAAUUAAAUAGUCAAUUAAAUGAAAGCAAGGAGAAGGUCUCCCAGCUUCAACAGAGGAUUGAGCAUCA,2.81

# Further values, each from its own experiment
# Technique: cross-linking MS
# Sample: cell fractions
Substance,partner,conditions,cross-linked residues
"DHX16 (Homo sapiens, UniProt O60231)","ARGLU1 (Homo sapiens, UniProt Q9NWB6)",added: DSSO,T193 to K170
"ISG20L2 (Homo sapiens, UniProt Q9H9L3)","PPAN (Homo sapiens, UniProt Q9NQ55)",added: DMTMM,K17 to E23

# Excerpt of the above (block 1):
Strand,log2 enrichment
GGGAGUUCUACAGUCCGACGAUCUUAAGAAUUUGCUUAAAGAAGUGCGGAUCUAUGCACAGAAAUUUAUUGAUCGAGGAAAGGAUUUUAACUUGGAGUUGGCAAUUAAAACACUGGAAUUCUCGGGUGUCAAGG,0.543
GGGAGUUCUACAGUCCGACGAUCAAGUCCUGUGCUACACAUCGUAUGUACCGAAUCGGUUUGGAAAAAAAGGUUUUUGGAAAGUAUUAUGUUACGCCGUUCGGAUCUGCACUUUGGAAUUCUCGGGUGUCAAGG,-2.25
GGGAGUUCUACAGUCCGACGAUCCCUGUGCUACACAUCGUAUGUACCGAAUCGGGGAAAAAGGGGAAAGGGGAAAAAAAGGGGAAAGUAUUAUGUUACGCCGUUCGGAUCUGCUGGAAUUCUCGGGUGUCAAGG,-0.102
